Measured values from different studies.
Each line is one published result; not all experiments were run side by side.

CCC(C)n1ncn(-c2ccc(N3CCN(c4ccc(OCC5COC(Cn6cncn6)(c6ccc(Cl)cc6Cl)O5)cc4)CC3)cc2)c1=O (centres unmarked) — incidence of nasal congestion (healthy human volunteers; oral, 200 mg, compound alone cohort): 0%
CC(C)n1c(Nc2cccnc2)nc2cnc(Nc3ccc(N4CCN(C)CC4)cc3)nc21 — incidence of ALT increased TEAE (healthy male humans; oral, dose not given, drug interaction study, all arms): 11.9%
CC1(C)CC[C@]2(NC(=O)C(C)(F)F)CC[C@]3(C)[C@H](C(=O)C=C4[C@@]5(C)C=C(C#N)C(=O)C(C)(C)[C@@H]5CC[C@]43C)[C@@H]2C1 — incidence of urinary retention (human; oral, dose not given): 0%
Cn1cnc2ccc(Nc3c(F)ccc(NS(=O)(=O)N4CC(F)C4)c3Cl)c(Cl)c2c1=O — incidence of blurred vision (human; dose not given, monotherapy, first-in-human; relative to: participants): 4%
CC[C@H](C)[C@H](NC(=O)[C@H](Cc1ccccc1)NC(=O)[C@H](CCC(=O)O)NC(=O)[C@H](CCCCNC(=O)COCCOCCNC(=O)COCCOCCNC(=O)CC[C@H](NC(=O)CCCCCCCCCCCCCCCCC(=O)O)C(=O)O)NC(=O)[C@H](C)NC(=O)[C@H](C)NC(=O)[C@H](CCC(N)=O)NC(=O)CNC(=O)[C@H](CCC(=O)O)NC(=O)[C@H](CC(C)C)NC(=O)[C@H](Cc1ccc(O)cc1)NC(=O)[C@H](CO)NC(=O)[C@H](CO)NC(=O)[C@@H](NC(=O)[C@H](CC(=O)O)NC(=O)[C@H](CO)NC(=O)[C@@H](NC(=O)[C@H](Cc1ccccc1)NC(=O)[C@@H](NC(=O)CNC(=O)[C@H](CCC(=O)O)NC(=O)C(C)(C)NC(=O)[C@@H](N)Cc1cnc[nH]1)[C@@H](C)O)[C@@H](C)O)C(C)C)C(=O)N[C@@H](C)C(=O)N[C@@H](Cc1c[nH]c2ccccc12)C(=O)N[C@@H](CC(C)C)C(=O)N[C@H](C(=O)N[C@@H](CCCNC(=N)N)C(=O)NCC(=O)N[C@@H](CCCNC(=N)N)C(=O)NCC(=O)O)C(C)C — incidence of severe hypoglycaemia (human, type 2 diabetes; dose not given, blood glucose-confirmed, during treatment; relative to: subjects): 0%
C[C@@H](Oc1ccc(S(C)(=O)=O)cc1C(=O)N1C[C@@H]2C[C@]2(c2cc(C(F)(F)F)on2)C1)C(F)(F)F — incidence of Pollakiuria (human; oral, 25 mg): 16.7%
CN1CCc2nc(C(=O)N[C@@H]3C[C@@H](C(=O)N(C)C)CC[C@@H]3NC(=O)C(=O)Nc3ccc(Cl)cn3)sc2C1 — incidence of each common adverse event (item: headache, nausea, faecal occult blood; humans; ketoconazole interaction study): 10%
CO[C@H]1/C=C/O[C@@]2(C)Oc3c(C)c(O)c4c(O)c(c(/C=N/N5CCN(C)CC5)c(O)c4c3C2=O)NC(=O)/C(C)=C\C=C\[C@H](C)[C@H](O)[C@@H](C)[C@@H](O)[C@@H](C)[C@H](OC(C)=O)[C@@H]1C — incidence of ALT increased (healthy human volunteers; oral, 600 mg, itraconazole cohort, added: gepotidacin 1500 mg): 0%

For quick reference, copied from above:
CC(C)n1c(Nc2cccnc2)nc2cnc(Nc3ccc(N4CCN(C)CC4)cc3)nc21 — incidence of ALT increased TEAE (healthy male humans; oral, dose not given, drug interaction study, all arms): 11.9%
